Published values collected from several papers.
Numbers after ± are the reported error. Converted amounts (≈) assume the structure as drawn.
Chain of UniProt Q9NY46 (whole entry, looked up): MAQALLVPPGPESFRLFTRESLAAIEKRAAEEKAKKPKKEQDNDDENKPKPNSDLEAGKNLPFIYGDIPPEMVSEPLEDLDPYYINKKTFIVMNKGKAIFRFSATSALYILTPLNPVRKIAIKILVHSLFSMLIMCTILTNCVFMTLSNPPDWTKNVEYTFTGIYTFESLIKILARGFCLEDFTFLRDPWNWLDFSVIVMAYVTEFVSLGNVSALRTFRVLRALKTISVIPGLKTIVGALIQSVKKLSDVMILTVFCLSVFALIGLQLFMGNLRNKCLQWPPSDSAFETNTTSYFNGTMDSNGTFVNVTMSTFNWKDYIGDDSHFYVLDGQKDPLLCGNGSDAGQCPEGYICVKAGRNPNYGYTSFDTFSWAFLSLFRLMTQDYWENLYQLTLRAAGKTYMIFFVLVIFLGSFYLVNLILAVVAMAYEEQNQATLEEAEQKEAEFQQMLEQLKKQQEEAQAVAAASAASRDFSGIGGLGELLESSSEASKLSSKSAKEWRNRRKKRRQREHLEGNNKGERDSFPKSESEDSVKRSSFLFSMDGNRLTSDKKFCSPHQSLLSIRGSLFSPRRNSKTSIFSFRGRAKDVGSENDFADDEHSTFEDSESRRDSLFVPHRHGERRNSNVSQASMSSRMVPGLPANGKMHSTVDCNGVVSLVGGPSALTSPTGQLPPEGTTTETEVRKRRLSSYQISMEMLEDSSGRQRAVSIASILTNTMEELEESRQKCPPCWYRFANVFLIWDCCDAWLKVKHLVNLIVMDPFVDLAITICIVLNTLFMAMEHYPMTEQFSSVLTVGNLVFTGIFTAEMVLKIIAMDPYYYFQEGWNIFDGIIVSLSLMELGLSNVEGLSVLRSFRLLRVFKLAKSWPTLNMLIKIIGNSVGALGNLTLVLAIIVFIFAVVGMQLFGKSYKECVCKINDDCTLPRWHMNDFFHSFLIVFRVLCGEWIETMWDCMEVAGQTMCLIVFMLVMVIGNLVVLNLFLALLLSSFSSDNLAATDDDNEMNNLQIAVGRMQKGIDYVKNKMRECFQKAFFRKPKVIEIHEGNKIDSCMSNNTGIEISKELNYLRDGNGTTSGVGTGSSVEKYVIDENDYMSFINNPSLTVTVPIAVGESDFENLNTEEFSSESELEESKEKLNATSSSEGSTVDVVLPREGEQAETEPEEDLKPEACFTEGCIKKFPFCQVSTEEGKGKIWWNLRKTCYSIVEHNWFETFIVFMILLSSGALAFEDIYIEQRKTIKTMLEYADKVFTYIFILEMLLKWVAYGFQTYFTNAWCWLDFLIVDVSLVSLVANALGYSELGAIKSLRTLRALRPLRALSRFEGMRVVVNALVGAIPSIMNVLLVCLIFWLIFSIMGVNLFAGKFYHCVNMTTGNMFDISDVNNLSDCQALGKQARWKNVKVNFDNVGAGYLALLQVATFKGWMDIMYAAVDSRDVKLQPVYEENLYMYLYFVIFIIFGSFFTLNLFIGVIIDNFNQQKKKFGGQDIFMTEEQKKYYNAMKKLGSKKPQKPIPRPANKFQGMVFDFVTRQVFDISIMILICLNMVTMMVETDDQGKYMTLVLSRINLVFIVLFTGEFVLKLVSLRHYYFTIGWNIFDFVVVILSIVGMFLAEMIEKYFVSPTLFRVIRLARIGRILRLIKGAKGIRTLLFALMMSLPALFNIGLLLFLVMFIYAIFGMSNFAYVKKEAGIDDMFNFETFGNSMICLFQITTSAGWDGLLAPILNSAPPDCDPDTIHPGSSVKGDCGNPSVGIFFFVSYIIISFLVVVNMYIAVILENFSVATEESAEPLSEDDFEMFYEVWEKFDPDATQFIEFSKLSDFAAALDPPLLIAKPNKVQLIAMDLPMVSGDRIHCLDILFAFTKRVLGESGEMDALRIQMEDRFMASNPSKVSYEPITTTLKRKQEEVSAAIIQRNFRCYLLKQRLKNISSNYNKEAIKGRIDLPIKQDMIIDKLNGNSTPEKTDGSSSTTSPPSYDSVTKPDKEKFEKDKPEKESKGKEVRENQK

The EC50 of `O=C(NCc1ccc(F)cc1F)c1c(O)c2cccnc2n(O)c1=O` is reported as 308 ± 125 nM (HIV-1; viral replication; infected cells, integrase G140S/Q148H mutant).
The EC50 of `COc1cc(F)c(C(=O)c2ccnc(Nc3ccc(C#N)cc3)n2)c(F)c1` is reported as 347 nM (HIV-1; viral replication; MT4, RT K103N mutant).
With `CC[C@@H](C)[C@@H](NC(=O)[C@@H](CCCCN)NC(=O)[C@@H](CCCCN)NC(=O)[C@@H](CC(C)C)NC(=O)[C@@H](Cc1c[nH]c2ccccc12)NC(=O)CN)C(=O)NCC(=O)N[C@H](CCCCN)C(=O)N[C@H](CCCCN)C(=O)N[C@@H](C(=O)N[C@H](CCC(=O)O)C(=O)N[C@H](CCCNC(=N)N)C(=O)N[C@@H](C(=O)NCC(=O)N[C@H](CCC(N)=O)C(=O)N[C@H](Cc1c[nH]cn1)C(=O)N[C@@H](C(=O)N[C@H](CCCNC(=N)N)C(=O)N[C@H](CC(=O)O)C(=O)N[C@H](C)C(=O)N[C@@H](C(=O)N[C@@H](C(=O)N[C@H](CCC(N)=O)C(=O)N[C@@H](C(=O)N[C@@H](C(=O)NCC(=O)N[C@@H](C(=O)N[C@H](C)C(=O)N[C@H](CCC(N)=O)C(=O)N[C@H](CCC(N)=O)C(=O)N[C@H](C)C(=O)N[C@H](C)C(=O)N[C@H](CC(N)=O)C(=O)N[C@@H](C(=O)N[C@H](C)C(=O)N[C@H](C)C(=O)N[C@@H](C(=O)N[C@H](CC(C)C)C(=O)N[C@H](CCCCN)C(N)=O)[C@H](C)O)C(C)C)C(C)C)[C@H](C)CC)[C@H](C)O)[C@H](C)CC)[C@H](C)O)[C@H](C)O)C(C)C)[C@H](C)CC` the MIC was 1020 µg/mL (≈ 244 µM) (Escherichia coli; broth microdilution; ATCC 25922, CAMHB).
`CC(C)N1CCn2cc(C(=O)NCc3ccc(F)cc3F)c(=O)c(O)c2C1=O` has an EC50 of 103 ± 12.4 nM (HIV-1; viral replication, single-round vector infection; IN T97A/G140S/Q148H).
Under “inactivation time constant ratio”, `CC(C)C[C@@H]1NC(=O)[C@H](CCCNC(=N)N)NC(=O)[C@@H]2CCCN2C(=O)[C@@H]2CSSC[C@H](NC(=O)CNC(=O)[C@@H]3CCCN3C(=O)[C@H](CCCCN)NC(=O)[C@H](CC(=O)O)NC(=O)[C@@H](NC(=O)CN)C(C)C)C(=O)N[C@@H](CCCNC(=N)N)C(=O)N[C@@H](Cc3ccc(O)cc3)C(=O)N[C@@H](CC(C)C)C(=O)N[C@@H](Cc3ccccc3)C(=O)NCC(=O)NCC(=O)N[C@H]3CSSC[C@H](NC(=O)CNC1=O)C(=O)N[C@@H](CCCCN)C(=O)NCC(=O)N[C@@H](CCCCN)C(=O)NCC(=O)N[C@@H](Cc1c[nH]cn1)C(=O)N[C@@H](CC(=O)O)C(=O)N[C@@H](Cc1ccc(O)cc1)C(=O)N[C@H](C(=O)N[C@@H](C)C(=O)N[C@@H](Cc1c[nH]c4ccccc14)C(=O)N[C@@H](CC(=O)O)C(=O)NCC(=O)N[C@H](C(=O)N[C@@H](Cc1ccccc1)C(=O)N[C@@H](CO)C(=O)N[C@@H](CC(=O)O)C(=O)O)[C@@H](C)O)CSSC[C@H](NC(=O)[C@H](CC(=O)O)NC(=O)[C@H](CC(=O)O)NC(=O)[C@H](CC(=O)O)NC(=O)[C@H](CO)NC(=O)[C@H](CCCCN)NC3=O)C(=O)N2` is recorded as 4.45 ± 0.65 (Sodium channel protein type 3 subunit alpha (SCN3A, Homo sapiens, UniProt Q9NY46); sodium current, automated patch clamp; HEK293; 1 µM, 50 ms depolarizing pulse; relative to: compound over control).
`CCCCCCCCCCCCCCCC(=O)N[C@@H](CCC(=O)NCCOCCOCCC(=O)NCCOCCOCCC(=O)NCCCC[C@H](NC(=O)[C@H](CC(=O)O)NC(=O)[C@H](CC(C)C)NC(=O)[C@H](Cc1ccc(O)cc1)NC(=O)[C@H](CCCCN)NC(=O)[C@H](CO)NC(=O)[C@H](Cc1ccc(O)cc1)NC(=O)[C@H](CC(=O)O)NC(=O)[C@H](CO)NC(=O)[C@@H](NC(=O)[C@H](Cc1ccccc1)NC(=O)[C@@H](NC(=O)CNC(=O)[C@H](CCC(N)=O)NC(=O)[C@@H](CO)NC(=O)[C@@H](N)Cc1c[nH]cn1)[C@@H](C)O)[C@@H](C)O)C(=O)N[C@@H](CCCNC(=N)N)C(=O)N[C@@H](CCCNC(=N)N)C(=O)N[C@@H](C)C(=O)N[C@@H](CCC(N)=O)C(=O)N[C@@H](CC(=O)O)C(=O)N[C@@H](Cc1ccccc1)C(=O)N[C@H](C(=O)N[C@@H](CCC(N)=O)C(=O)N[C@@H](Cc1c[nH]c2ccccc12)C(=O)N[C@@H](CC(C)C)C(=O)N[C@@H](CC(C)C)C(=O)N[C@@H](CC(N)=O)C(=O)N[C@H](C(=O)NCC(=O)NCC(=O)N1CCC[C@H]1C(=O)N[C@@H](CO)C(=O)N[C@@H](CO)C(=O)NCC(=O)N[C@@H](C)C(=O)N1CCC[C@H]1C(=O)N1CCC[C@H]1C(=O)N1CCC[C@H]1C(=O)N[C@@H](CO)C(N)=O)[C@@H](C)O)C(C)C)C(=O)O` — result for “serum enzyme activity”: 78.5 ± 10.3 U/L (refers to: AST; Sprague-Dawley rat, female; subcutaneous, 20 µg/kg once daily, 14 days).
The EC50 of `Cc1cc(C)cc(S(=O)(=O)c2c(C(N)=O)[nH]c3ccc(Cl)cc23)c1` is reported as 15 ± 8.6 nM (HIV-1; viral replication; MT-4, L100I mutant).
The EC50 of `O=C(NCc1ccc(F)cc1F)c1cc2cccnc2n(O)c1=O` is reported as 4.9 ± 0.8 nM (HIV-1; viral replication; infected cells, integrase Y143R mutant).
For `Cc1cc(C)cc(S(=O)(=O)c2c(C(=O)NC3CC4(C3)CN(Cc3n[nH]c(=O)[nH]3)C4)[nH]c3ccc(Cl)cc23)c1`, the EC50 was 250 ± 18 nM (HIV-1; viral replication; MT-4, Y181C mutant).
The EC50 of `C=CCCC[C@](C)(N)C(=O)N[C@@H](C)C(=O)N[C@@H](Cc1ccc(O)cc1)C(=O)N[C@@H](Cc1ccccc1)C(=O)N[C@@](C)(CCCC=C)C(=O)N[C@@H](CC(C)C)C(=O)N[C@@H](CCCCN)C(=O)N[C@@H](CC(C)C)C(=O)N[C@@H](C)C(=O)NCC(=O)N[C@@H](CCCNC(=N)N)C(=O)N[C@@H](Cc1c[nH]c2ccccc12)C(N)=O` is reported as 5000 nM (HIV-1).
The EC50 of `Cc1cccc(-c2cc(C#N)cc(Oc3c(C(F)(F)F)ccn(Cc4n[nH]c(=O)n4C)c3=O)c2)c1` is reported as 760 ± 130 nM (HIV-1; viral cytopathicity; MT4, Y188L mutant).
The Tmax of `CCCCCCCCCCCCCCCC(=O)N[C@@H](CCC(=O)NCCCC[C@H](NC(=O)[C@H](CC(=O)O)NC(=O)[C@H](CO)NC(=O)[C@@H](NC(=O)[C@H](Cc1ccccc1)NC(=O)[C@@H](NC(=O)CNC(=O)[C@H](CCC(N)=O)NC(=O)[C@H](C)NC(=O)[C@@H](Cc1ccc(O)cc1)NC(C)=O)[C@@H](C)O)[C@@H](C)O)C(=O)N[C@@H](CO)C(=O)N[C@@H](CCCCN)C(=O)N[C@@H](Cc1ccc(O)cc1)C(=O)N[C@@H](CC(C)C)C(=O)N[C@@H](CC(=O)O)C(=O)N[C@@H](CCC(=O)O)C(=O)N[C@@H](CCCNC(=N)N)C(=O)N[C@@H](C)C(=O)N[C@@H](C)C(=O)N[C@@H](CCC(N)=O)C(=O)N[C@@H](CC(=O)O)C(=O)N[C@@H](Cc1ccccc1)C(=O)N[C@H](C(=O)N[C@@H](CCC(N)=O)C(=O)N[C@@H](Cc1c[nH]c2ccccc12)C(=O)N[C@@H](CC(C)C)C(=O)N[C@@H](CC(C)C)C(=O)N[C@@H](CCC(=O)O)C(=O)NCC(=O)NCC(=O)N1CCC[C@H]1C(=O)N[C@@H](CO)C(=O)N[C@@H](CO)C(=O)NCC(=O)N[C@@H](C)C(=O)N1CCC[C@H]1C(=O)N1CCC[C@H]1C(=O)N1CCC[C@H]1C(=O)N[C@@H](CO)C(N)=O)C(C)C)C(=O)O` is reported as 2 to 4 h (Wistar rat, male; subcutaneous, 0.02 mg/kg).
With `CC[C@H](C)[C@@H]([C@@H](CC(=O)N1CCC[C@H]1[C@H](OC)[C@@H](C)C(=O)N[C@H](C)[C@@H](O)c1ccccc1)OC)N(C)C(=O)[C@@H](NC(=O)[C@H](C(C)C)N(C)C(=O)OCc1ccc(NC(=O)[C@H](CCCNC(N)=O)NC(=O)[C@@H](NC(=O)Cn2cc(CCC(=O)NCCC(=O)N(C)CC(=O)N(C)CC(=O)N(C)CC(=O)N(C)CC(=O)N(C)CC(=O)N(C)CC(=O)N(C)CC(=O)N(C)CC(=O)N(C)CC(=O)N(C)CC(=O)N[C@@H](C)C(=O)NC3CN(C)Cc4cc5cc(c4)CN(C)CC(C(N)=O)NC(=O)[C@H](C(C)(C)C)NC(=O)[C@H](CC(=O)O)NC(=O)[C@H](Cc4ccc(O)cc4)NC(=O)[C@H](Cc4ccccc4)NC(=O)[C@H](CC(=O)O)NC(=O)[C@H](CCC(=O)O)NC(=O)[C@H](CSC5)NC(=O)[C@@H](C)NC(=O)[C@H](Cc4cccc5ccccc45)NC(=O)[C@H](CCC(=O)O)NC(=O)[C@H](CC(N)=O)NC(=O)[C@@H](C)NC3=O)nn2)C(C)C)cc1)C(C)C` (stereo partly drawn) the plasma half-life was 0.69 h (naive CD-1 mouse, plasma; intravenous, 3 mg/kg).
`N#Cc1ccc(Nc2nccc(C(=O)c3c(F)cc(F)cc3F)n2)cc1` has an EC50 of 6880 nM (HIV-1; viral replication; MT4, RT K103N mutant).
`Cc1cc(/C=C/C#N)cc(C)c1-n1cnc2cnc(Nc3ccc(C#N)cc3)nc21` has an EC50 of 2.9 ± 0.3 nM (HIV-1; viral replication, single-round infection; RT mutant V106A/F227L).
For `CC[C@H](C)[C@H](NC(=O)[C@H](CCCN)NC(=O)[C@H](CC(=O)O)NC(=O)[C@H](CC(C)C)NC(=O)C(C)(CC(C)C)NC(=O)[C@@H](NC(=O)[C@H](CO)NC(=O)[C@H](Cc1ccc(O)cc1)NC(=O)[C@H](CC(=O)O)NC(=O)[C@H](CO)NC(=O)[C@@H](NC(=O)[C@H](Cc1ccccc1)NC(=O)[C@@H](NC(=O)CNC(=O)[C@H](CCC(=O)O)NC(=O)C(C)(C)NC(=O)[C@@H](N)Cc1ccc(O)cc1)[C@@H](C)O)[C@@H](C)CC)[C@@H](C)CC)C(=O)N[C@@H](Cc1c[nH]cn1)C(=O)N[C@@H](CCC(N)=O)C(=O)NC(C)(C)C(=O)N[C@@H](CC(=O)O)C(=O)N[C@@H](Cc1ccccc1)C(=O)N[C@H](C(=O)N[C@@H](CCC(=O)O)C(=O)N[C@@H](Cc1ccc(O)cc1)C(=O)N[C@@H](CCCCNC(=O)COCCOCCNC(=O)COCCOCCNC(=O)CC[C@H](NC(=O)CCCCCCCCCCCCCCCCCCC(=O)O)C(=O)O)C(=O)N[C@@H](CC(C)C)C(=O)N[C@@H](CCC(=O)O)C(=O)NCC(=O)NCC(=O)N1CCC[C@H]1C(=O)N[C@@H](CO)C(=O)N[C@@H](CO)C(=O)NCC(=O)N[C@@H](C)C(=O)N1CCC[C@H]1C(=O)N1CCC[C@H]1C(=O)N1CCC[C@H]1C(=O)N[C@@H](CO)C(N)=O)C(C)C` (stereo partly drawn), the Vd/F was 8.11 L (human, plasma; subcutaneous, 25 mg, single dose, healthy volunteers).
For `Cc1cc(/C=C/C#N)cc(C)c1Nc1nc(Nc2ccc(C#N)cc2)ncc1N`, the EC50 was 0.3 nM (HIV-1; viral replication, single-round infection; RT mutant G190A).
The EC50 of `CC(C)n1ccn2cc(C(=O)NCc3ccc(F)cc3F)c(=O)c(O)c2c1=O` is reported as 147 ± 15.4 nM (HIV-1; viral replication, single-round vector infection; IN E138A/G140S/Q148H).

Some of these lines once more:
For `Cc1cc(/C=C/C#N)cc(C)c1Nc1nc(Nc2ccc(C#N)cc2)ncc1N`, the EC50 was 0.3 nM (HIV-1; viral replication, single-round infection; RT mutant G190A).
The EC50 of `Cc1cc(C)cc(S(=O)(=O)c2c(C(N)=O)[nH]c3ccc(Cl)cc23)c1` is reported as 15 ± 8.6 nM (HIV-1; viral replication; MT-4, L100I mutant).
The EC50 of `O=C(NCc1ccc(F)cc1F)c1cc2cccnc2n(O)c1=O` is reported as 4.9 ± 0.8 nM (HIV-1; viral replication; infected cells, integrase Y143R mutant).
